Results gathered from unrelated publications.
A part holds a random share of what one study measured.

Study 1
Target: Centromere-binding protein 1, full length, N-terminal tag (CBF1, Saccharomyces cerevisiae, UniProt P17106, residues 1-351)
Chain of UniProt P17106 (whole entry, looked up): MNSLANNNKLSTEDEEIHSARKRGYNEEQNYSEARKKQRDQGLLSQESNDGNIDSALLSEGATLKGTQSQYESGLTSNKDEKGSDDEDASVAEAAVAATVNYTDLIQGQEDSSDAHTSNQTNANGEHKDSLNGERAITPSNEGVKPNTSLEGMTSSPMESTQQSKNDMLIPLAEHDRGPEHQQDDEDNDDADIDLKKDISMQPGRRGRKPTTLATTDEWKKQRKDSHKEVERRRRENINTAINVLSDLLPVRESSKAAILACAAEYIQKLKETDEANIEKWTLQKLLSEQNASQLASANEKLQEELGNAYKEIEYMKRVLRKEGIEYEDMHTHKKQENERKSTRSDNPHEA
Method: protein-binding microarray
Molecule type: double-stranded DNA, one strand shown
Medium: in vitro
Tested at: 0.8 µM
Setting: whole 60-bp probe, no competitor
Reading: higher = stronger binding
Shared flanks, not repeated: … GTCTTGATTCGCTTGACGCTGCTG
| Oligonucleotide | fluorescence intensity |
| --- | --- |
| CTAACGTCGGAGAGGCAGGTGATCTTCGGCTCGTTC | 960 a.u. |
| GAAGCTCTAGCTGATCAGCTGTTTTTGGTTTCTTAG | 835 a.u. |
| CTATGTTCTTGAGAAAACAACACGTTTACTTGTTTC | 586 a.u. |
| GAATCGACACTCAACGTGATAATCAAAAGGCAATAG | 1050 a.u. |
| CCTAACTACTATAACCACGATACATAGCTTCGTACA | 548 a.u. |
| GAAATCTGTGCCGGGCGGGTGATGTCCGGGCGATAG | 497 a.u. |
| CCTAACTACTATATTCTGATGATATAGCTTCGTACA | 496 a.u. |
| CTACTACGGACACTTCTGATGTTGCAAAAGATATTC | 549 a.u. |
| GAAATATCATGTTGTGATGTTAGAAAATATGGCTAG | 568 a.u. |
| GAAAATAATATATCTCACACCATAATAATGTCATAG | 531 a.u. |
| CTACACTCACAATTGGACGTGCCTCAATTATTTTTC | 522 a.u. |
| GAATGGAAATAATCGATCACCATCGTTGCCTCTTAG | 489 a.u. |
| CTAGATGTTCAACCTCGCCTGATCCTACCAAAATTC | 566 a.u. |
| CTAAAATACTGATACCACATGAACTATTGATCATTC | 567 a.u. |
| TGTACGAAGCTATGGCGTGGGGTTATAGTAGTTAGG | 516 a.u. |
| CTATAAAAAAGATGCAAAATCACGTGCTGAAAATTC | 22800 a.u. |
| GAAGAACTAAGAAAGGCCGTGACTTAACTGGTCTAG | 622 a.u. |
| GAACGTTTTATTTCACTCACCTGTTGTCGAAAATAG | 770 a.u. |
| TGTACGAAGCTATTACACATGGATATAGTAGTTAGG | 509 a.u. |

Study 2
Target: Ras GTPase-activating protein-binding protein 1, C-terminal RGG region (G3BP1, Homo sapiens, UniProt Q13283)
Chain of UniProt Q13283 (whole entry, looked up): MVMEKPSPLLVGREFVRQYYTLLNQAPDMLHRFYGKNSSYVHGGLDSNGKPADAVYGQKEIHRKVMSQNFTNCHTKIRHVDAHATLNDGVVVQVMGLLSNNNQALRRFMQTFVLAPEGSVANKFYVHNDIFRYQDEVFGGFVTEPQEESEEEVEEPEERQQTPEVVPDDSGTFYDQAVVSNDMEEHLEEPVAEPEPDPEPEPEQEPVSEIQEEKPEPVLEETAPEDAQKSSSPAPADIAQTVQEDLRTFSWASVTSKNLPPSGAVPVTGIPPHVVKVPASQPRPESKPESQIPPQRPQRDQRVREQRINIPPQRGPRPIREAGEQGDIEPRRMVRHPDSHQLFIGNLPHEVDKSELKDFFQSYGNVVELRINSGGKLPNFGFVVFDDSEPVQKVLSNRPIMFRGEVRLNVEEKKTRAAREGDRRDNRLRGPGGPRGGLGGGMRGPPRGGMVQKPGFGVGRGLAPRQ
Method: RNA Bind-n-Seq
Molecule type: RNA
Medium: in vitro
Tested at: 1 µM
Setting: whole 134-nt RNA, ends assumed
Together with: 150 mM KCl
Relative to: input library
Reading: higher = stronger binding
Shared flanks, not repeated: GGGAGUUCUACAGUCCGACGAUC … UGGAAUUCUCGGGUGUCAAGG
| Oligonucleotide | log2 enrichment |
| --- | --- |
| AGUCCUGUGCUACACAUCGUAUGUACCGAAUCAAAUUUAAACCCCCCCAAACCCAAAAAAGUAUUAUGUUACGCCGUUCGGAUCUGCACU | -0.842 |
| ACCAUGCAGGUGGGCAUCUUUGGGAAGCGGGGCAAGGGGGGGAUAGGGAGGGGGGUAACACUUUGGGAACAGGUGGUCCCAGGUCGUUUC | -1.28 |
| CUGUGCUACACAUCGUAUGUACCGAAUCGGGGAAAGGGGUUUUUUUGGGGAAAAAAAGGGGAAAGUAUUAUGUUACGCCGUUCGGAUCUG | -0.449 |
| UCCUCAAGUCCUGUGCUACACAUCGUAUGUACCGAAUCGGUUUGGUGGUGGAAAGUAUUAUGUUACGCCGUUCGGAUCUGCACUUCCAGC | -0.795 |
| CCUGUGCUACACAUCGUAUGUACCGAAUCGGUUUUUUUGGUUUUUUUGGGGUUUUUUUGGAAAGUAUUAUGUUACGCCGUUCGGAUCUGC | -1.7 |
| GUCCUGUGCUACACAUCGUAUGUACCGAAUCGGGGAAAGGGGAAAAAAAGGGGAGGGGAAAGUAUUAUGUUACGCCGUUCGGAUCUGCAC | 1.68 |
| ACCAUGCAGGUGGGCAUCUUUGGGAAGUGGAGCAAGGGGGGGAUAGGGAGGGGGGUAACACUUUGGGAACAGGUGGUCCCAGGUCGUUUC | -1.45 |
| AAGUCCUGUGCUACACAUCGUAUGUACCGAAUCGGGGUUUGGGGUUUGGGUUUGGGGAAAGUAUUAUGUUACGCCGUUCGGAUCUGCACU | 1.36 |
| CCUCAAGUCCUGUGCUACACAUCGUAUGUACCGAAUCGGAGGUUUUUGGUGGAAAGUAUUAUGUUACGCCGUUCGGAUCUGCACUUCCAG | -0.702 |

Study 3
Target: TAR DNA-binding protein 43, full length, His tag (TARDBP, Homo sapiens, UniProt Q13148, residues 1-414)
Method: RNA Bind-n-Seq
Molecule type: RNA
Medium: in vitro
Tested at: 20 nM
Setting: 6-mer, flanks averaged, single round
Together with: 150 mM LiCl
Relative to: input library
Reading: higher = stronger binding
| Oligonucleotide | 6-mer enrichment (R) |
| --- | --- |
| GUUCCA | 0.913 |
| CAGUAC | 0.846 |
| CCGCAG | 0.929 |
| GUAACA | 0.843 |
| UCUCUA | 0.876 |
| ACCCGA | 0.974 |
| UCUCAU | 0.888 |
| AAUCCC | 0.922 |
| UUAAGU | 1.01 |
| CCCCUG | 1.17 |
| UGCCCC | 1.24 |
| UGGUUC | 0.991 |
| UGGCGU | 1.11 |
| AACGAU | 0.783 |
| ACUGCC | 0.907 |
| CUAAGG | 0.848 |

Study 4
Target: Histone acetyltransferase KAT6A, winged helix 1, GST fusion (KAT6A, Homo sapiens, UniProt Q92794, residues 1-85)
Method: protein binding microarray
Molecule type: double-stranded DNA, one strand shown
Medium: in vitro
Tested at: not given
Setting: 8-mer, flanks averaged, mean of 2 arrays, mostly near background
Relative to: not given
Reading: higher = stronger binding
Residues (chain): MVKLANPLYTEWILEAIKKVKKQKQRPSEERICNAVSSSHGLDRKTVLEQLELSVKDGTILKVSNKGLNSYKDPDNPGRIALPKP
| Oligonucleotide | E-score |
| --- | --- |
| ATCAACTG | -0.199 |
| GCACTCGA | -0.198 |
| ACGTCAGG | -0.147 |
| AATATGGC | -0.0702 |
| CCAAACCG | 0.15 |
| CCCTGCTC | -0.285 |
| CCCCTTCA | -0.102 |
| ACAACGCC | 0.224 |
| CCACAGCG | 0.0954 |
| TAGCTTAA | -0.125 |
| GAGTGATA | -0.0394 |
| ATGTTGAA | -0.00899 |
| GCCCTCGC | 0.234 |
| CTATCAGC | -0.0228 |
| ATGTGATA | 0.0102 |
| AACCAACT | -0.214 |
